Measured values of several laboratories.
Lines come from different studies, so protocols differ. ± marks the error that the study gave.

C#CCN1CCc2c3n(c4ccccc24)C(=O)C(=C)CC3(C(=O)OC)C1 (centres unmarked)
IC50 (Hepatitis B virus; viral replication, inhibitor, ELISA; HePAD38): 1990 nM

CCOC(=O)CNC(=O)CN1C(=O)S/C(=C\c2ccc(C)cc2)C1=O
IC50 (Trypanosoma brucei gambiense; cell viability; IL1922; 72 h): > 63000 nM

O=[N+]([O-])c1ccc(/C=N/N=C/c2ccc(F)cc2)s1
IC50 (Trypanosoma evansi; parasite growth, CellTiter-Glo; Tansui bloodstream form; 72 h): 670 ± 20 nM

C#CCN1CCC23C(=C(C(=O)OC)CC(C(=O)OC)C12)Nc1ccccc13 (centres unmarked)
IC50 (Hepatitis B virus; viral replication, inhibitor, ELISA; HePAD38): 4980 nM

O=[N+]([O-])c1ccc(/C=N/N=C/c2ccc(O)cc2)o1
IC50 (Trypanosoma brucei gambiense; parasite growth, CellTiter-Glo; IL1922 bloodstream form; 72 h): 5470 ± 230 nM

O=C(CCNC(=O)c1ccsc1)Nc1cccc(Oc2ccc(Cl)cc2)c1
IC50 (Hepatitis B virus; viral replication, inhibitor, qPCR; HepG2.2.15.7): 900 nM

O=[N+]([O-])c1ccc(/C=N/N=C/c2ccc(Br)cc2)s1
IC50 (Trypanosoma brucei gambiense; parasite growth, CellTiter-Glo; IL1922 bloodstream form; 72 h): 1010 ± 250 nM

CCOC(=O)C(NC(=O)CN1C(=O)/C(=C/c2ccc3c(c2)OCO3)SC1=S)C(C)C (centres unmarked)
IC50 (Trypanosoma brucei gambiense; cell viability; IL1922; 72 h): > 69000 nM

C#CCN1CCc2c([nH]c3ccccc23)C(=C)C1=O
IC50 (Hepatitis B virus; viral replication, inhibitor, ELISA; HePAD38): 3160 nM

CCC(NC(=O)CN1C(=O)N/C(=C\c2ccc(C)cc2)C1=O)C(=O)OC (centres unmarked)
IC50 (Trypanosoma brucei gambiense; cell viability; IL1922; 72 h): > 64000 nM

CC(C)(C)OC(=O)N1CCC(C(=O)N[C@@H](Cc2ccc3ccccc3c2)C(=O)O)(c2ccc3ccccc3c2)CC1
IC50 (Human immunodeficiency virus 1; viral replication, inhibitor): 57700 nM

CCN(CC)CC#CCNc1ccnc2cc(Cl)ccc12
IC50 (Plasmodium falciparum; parasite growth; 3D7; blood stage): 53 nM

COc1ccc(/C=N/N=C/c2ccc([N+](=O)[O-])s2)cc1
IC50 (Trypanosoma brucei gambiense; parasite growth, CellTiter-Glo; IL1922 bloodstream form; 72 h): 1290 ± 200 nM

CN(C(=O)c1ccn2ncc(-c3ccc(C(N)=O)cc3)c2c1)c1ccc(C#N)cn1
IC50 (Cryptosporidium parvum; parasite growth, imaging; HCT-8; intracellular): 63 nM

Cc1cc(N2CC[C@@](C#N)(C3(C)CC3)C2=O)cc(C(=O)NCc2cc(F)cc(-c3cnn(C)c3)c2)n1
IC50 (Plasmodium vivax; parasite growth, ex vivo drug susceptibility; Brazilian clinical field isolates): 15 nM

O=[N+]([O-])c1ccc(/C=N/N=C/c2ccc(Cl)cc2)s1
IC50 (Trypanosoma brucei gambiense; parasite growth, CellTiter-Glo; IL1922 bloodstream form; 72 h): 1040 ± 230 nM

CCOC(=O)C(C)NC(=O)CN1C(=O)N/C(=C\c2ccc(C)cc2)C1=O (centres unmarked)
IC50 (Trypanosoma brucei gambiense; cell viability; IL1922; 72 h): > 57000 nM

O=[N+]([O-])c1ccc(/C=N/N=C/c2ccc(F)cc2)o1
IC50 (Trypanosoma brucei gambiense; parasite growth, CellTiter-Glo; IL1922 bloodstream form; 72 h): 2480 ± 670 nM

N[C@H]1C[C@@H]1c1ccc(-c2cccc(O)c2)cc1
IC50 (herpes simplex virus 1; viral IE gene expression, qRT-PCR; HFF; 4 h pretreatment, infection 2 h): ~3000 nM

CCOC(=O)C(CC)NC(=O)CN1C(=O)S/C(=C\c2ccc(OC)cc2)C1=O (centres unmarked)
IC50 (Trypanosoma brucei gambiense; cell viability; IL1922; 72 h): > 58000 nM
